Experimental data of several laboratories.
Each line is one published result; not all experiments were run side by side. Several values in a cell are separate wells, animals, samples, runs or records.
lasR: Transcriptional activator protein LasR (lasR, Pseudomonas aeruginosa, UniProt P25084)
Sequence of UniProt P25084 (whole entry, looked up): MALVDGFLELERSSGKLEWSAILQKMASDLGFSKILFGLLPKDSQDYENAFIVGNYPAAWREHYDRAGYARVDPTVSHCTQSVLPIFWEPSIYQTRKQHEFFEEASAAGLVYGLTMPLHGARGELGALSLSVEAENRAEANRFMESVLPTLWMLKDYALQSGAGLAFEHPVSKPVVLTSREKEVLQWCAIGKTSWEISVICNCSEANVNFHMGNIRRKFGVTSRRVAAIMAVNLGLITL
RPS6KA6: Ribosomal protein S6 kinase alpha-6 (RPS6KA6, Homo sapiens, UniProt Q9UK32)
Sequence of UniProt Q9UK32 (whole entry, looked up): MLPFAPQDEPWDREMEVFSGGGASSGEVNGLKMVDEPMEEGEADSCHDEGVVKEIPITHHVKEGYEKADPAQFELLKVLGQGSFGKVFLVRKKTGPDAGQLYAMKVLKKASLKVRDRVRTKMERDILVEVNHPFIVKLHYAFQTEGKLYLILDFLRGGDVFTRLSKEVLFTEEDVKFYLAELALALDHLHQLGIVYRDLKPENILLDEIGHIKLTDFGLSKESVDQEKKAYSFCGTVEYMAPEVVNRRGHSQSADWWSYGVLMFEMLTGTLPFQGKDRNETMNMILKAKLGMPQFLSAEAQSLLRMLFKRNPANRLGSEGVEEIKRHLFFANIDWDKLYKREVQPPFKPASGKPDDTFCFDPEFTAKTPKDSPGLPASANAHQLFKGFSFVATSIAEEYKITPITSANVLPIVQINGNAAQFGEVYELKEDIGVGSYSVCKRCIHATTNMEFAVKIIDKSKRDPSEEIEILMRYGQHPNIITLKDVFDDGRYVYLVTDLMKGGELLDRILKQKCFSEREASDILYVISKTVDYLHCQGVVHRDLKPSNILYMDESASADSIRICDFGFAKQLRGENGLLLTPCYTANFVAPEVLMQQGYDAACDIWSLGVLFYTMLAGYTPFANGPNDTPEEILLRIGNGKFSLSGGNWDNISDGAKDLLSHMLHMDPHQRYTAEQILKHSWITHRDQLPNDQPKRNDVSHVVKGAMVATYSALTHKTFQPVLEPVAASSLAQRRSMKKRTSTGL
Sequence of UniProt P41595 (whole entry, looked up): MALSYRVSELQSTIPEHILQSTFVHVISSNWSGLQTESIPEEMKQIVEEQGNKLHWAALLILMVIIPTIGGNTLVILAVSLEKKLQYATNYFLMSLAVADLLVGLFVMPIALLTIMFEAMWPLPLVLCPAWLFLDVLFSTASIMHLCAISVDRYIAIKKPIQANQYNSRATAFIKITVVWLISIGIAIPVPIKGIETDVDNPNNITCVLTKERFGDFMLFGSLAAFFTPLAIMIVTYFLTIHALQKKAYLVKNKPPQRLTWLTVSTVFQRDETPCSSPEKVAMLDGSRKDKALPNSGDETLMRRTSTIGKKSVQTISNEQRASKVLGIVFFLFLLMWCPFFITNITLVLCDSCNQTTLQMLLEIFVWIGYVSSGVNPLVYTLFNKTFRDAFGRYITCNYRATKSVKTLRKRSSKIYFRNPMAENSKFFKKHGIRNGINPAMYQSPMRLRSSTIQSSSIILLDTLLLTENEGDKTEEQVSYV
Sequence of UniProt Q5JUK3 (whole entry, looked up): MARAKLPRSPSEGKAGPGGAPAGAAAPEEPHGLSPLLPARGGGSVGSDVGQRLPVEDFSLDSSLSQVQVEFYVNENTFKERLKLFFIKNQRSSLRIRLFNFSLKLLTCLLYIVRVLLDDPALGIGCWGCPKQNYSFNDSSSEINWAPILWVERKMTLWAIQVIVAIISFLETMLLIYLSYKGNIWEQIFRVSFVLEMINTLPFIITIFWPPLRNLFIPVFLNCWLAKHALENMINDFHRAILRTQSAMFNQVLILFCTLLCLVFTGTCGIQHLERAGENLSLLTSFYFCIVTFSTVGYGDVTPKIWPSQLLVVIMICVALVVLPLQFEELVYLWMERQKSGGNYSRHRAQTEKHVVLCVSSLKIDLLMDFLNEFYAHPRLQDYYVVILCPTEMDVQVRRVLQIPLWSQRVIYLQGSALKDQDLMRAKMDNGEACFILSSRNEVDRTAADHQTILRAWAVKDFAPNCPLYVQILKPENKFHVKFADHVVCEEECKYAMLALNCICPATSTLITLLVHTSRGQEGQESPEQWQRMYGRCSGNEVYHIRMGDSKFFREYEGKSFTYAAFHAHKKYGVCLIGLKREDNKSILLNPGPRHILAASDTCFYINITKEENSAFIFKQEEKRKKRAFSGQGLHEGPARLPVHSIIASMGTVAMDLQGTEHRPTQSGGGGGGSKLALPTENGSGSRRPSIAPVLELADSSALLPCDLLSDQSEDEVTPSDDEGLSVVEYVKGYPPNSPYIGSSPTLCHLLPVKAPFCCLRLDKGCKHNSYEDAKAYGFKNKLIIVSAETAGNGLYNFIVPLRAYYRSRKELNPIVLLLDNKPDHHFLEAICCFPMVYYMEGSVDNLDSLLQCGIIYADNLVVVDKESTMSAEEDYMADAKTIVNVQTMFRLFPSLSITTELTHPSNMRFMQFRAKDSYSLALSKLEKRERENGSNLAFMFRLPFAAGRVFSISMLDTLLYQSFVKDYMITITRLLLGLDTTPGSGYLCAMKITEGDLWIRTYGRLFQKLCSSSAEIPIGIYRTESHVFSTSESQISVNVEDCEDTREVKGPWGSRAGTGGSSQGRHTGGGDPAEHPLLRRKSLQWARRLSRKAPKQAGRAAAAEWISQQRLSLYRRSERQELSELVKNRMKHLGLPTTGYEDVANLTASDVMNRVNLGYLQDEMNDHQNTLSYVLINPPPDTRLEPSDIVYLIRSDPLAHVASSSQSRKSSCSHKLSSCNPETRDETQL
Sequence of UniProt P53355 (whole entry, looked up): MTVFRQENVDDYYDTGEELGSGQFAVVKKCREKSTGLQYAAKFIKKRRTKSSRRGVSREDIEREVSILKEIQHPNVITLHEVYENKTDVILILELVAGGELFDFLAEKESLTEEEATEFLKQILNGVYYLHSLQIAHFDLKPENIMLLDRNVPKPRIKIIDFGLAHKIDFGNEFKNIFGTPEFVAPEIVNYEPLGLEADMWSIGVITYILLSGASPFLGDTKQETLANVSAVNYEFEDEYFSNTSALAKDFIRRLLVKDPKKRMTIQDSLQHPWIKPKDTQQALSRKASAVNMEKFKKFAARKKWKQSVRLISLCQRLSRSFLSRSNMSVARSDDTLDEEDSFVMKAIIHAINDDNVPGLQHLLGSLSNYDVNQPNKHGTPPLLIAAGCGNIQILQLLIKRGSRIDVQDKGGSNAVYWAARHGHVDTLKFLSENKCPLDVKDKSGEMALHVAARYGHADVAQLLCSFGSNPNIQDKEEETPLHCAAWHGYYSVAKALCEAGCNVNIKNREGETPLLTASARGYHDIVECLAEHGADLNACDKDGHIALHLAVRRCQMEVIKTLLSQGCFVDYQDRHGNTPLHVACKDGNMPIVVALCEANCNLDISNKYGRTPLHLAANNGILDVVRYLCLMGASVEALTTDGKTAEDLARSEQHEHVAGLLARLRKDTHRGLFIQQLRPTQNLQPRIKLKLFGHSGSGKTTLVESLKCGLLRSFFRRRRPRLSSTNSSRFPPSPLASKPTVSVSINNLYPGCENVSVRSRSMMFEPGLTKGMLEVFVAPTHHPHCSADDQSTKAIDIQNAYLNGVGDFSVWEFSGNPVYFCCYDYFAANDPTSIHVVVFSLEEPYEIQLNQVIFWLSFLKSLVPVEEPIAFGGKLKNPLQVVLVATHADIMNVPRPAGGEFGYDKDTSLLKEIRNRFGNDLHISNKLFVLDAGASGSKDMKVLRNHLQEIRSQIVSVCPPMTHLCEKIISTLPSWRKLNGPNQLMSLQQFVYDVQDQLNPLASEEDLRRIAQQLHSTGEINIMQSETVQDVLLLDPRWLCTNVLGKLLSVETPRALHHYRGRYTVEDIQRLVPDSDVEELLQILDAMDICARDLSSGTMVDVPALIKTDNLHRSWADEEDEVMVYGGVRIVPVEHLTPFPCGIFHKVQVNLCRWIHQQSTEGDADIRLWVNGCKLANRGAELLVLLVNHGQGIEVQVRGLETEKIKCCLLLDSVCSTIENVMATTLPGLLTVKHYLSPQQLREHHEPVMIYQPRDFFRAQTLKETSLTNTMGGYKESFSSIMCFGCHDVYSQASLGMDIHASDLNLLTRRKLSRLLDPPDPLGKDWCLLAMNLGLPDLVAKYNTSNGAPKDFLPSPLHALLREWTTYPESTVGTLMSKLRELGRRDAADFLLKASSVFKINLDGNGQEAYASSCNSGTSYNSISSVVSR
Sequence of UniProt P32238 (whole entry, looked up): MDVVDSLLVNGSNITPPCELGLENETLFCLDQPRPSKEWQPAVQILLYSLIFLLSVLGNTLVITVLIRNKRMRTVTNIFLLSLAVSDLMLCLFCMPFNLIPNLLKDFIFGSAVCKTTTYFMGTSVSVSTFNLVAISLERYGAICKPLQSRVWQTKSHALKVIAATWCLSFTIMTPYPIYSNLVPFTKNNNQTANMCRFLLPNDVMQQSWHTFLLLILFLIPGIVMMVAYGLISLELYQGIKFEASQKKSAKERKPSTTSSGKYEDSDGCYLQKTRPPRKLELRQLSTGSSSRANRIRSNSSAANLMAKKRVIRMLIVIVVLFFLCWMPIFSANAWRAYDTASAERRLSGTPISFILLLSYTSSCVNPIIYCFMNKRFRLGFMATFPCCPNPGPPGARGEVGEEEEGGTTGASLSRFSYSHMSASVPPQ
Sequence of UniProt O94921 (whole entry, looked up): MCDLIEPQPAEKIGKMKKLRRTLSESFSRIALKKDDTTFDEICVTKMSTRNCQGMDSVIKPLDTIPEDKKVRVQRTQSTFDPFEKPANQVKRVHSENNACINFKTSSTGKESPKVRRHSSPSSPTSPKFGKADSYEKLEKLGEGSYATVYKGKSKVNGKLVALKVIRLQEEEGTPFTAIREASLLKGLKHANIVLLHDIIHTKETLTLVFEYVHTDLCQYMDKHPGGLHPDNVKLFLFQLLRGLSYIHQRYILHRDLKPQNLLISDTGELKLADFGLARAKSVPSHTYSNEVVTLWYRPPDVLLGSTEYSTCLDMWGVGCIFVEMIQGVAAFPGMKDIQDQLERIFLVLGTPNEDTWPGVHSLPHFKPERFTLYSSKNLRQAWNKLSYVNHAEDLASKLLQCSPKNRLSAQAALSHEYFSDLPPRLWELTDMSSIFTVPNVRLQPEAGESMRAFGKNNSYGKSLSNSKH

SMILES	target	test	test system	conditions	inhibition
CCCCCCCCCCCCCCCCCC(=O)NC[C@H]1CC[C@H](C(=O)N[C@@H](CCC(=O)NCCCOCCOCCOCCCNC(=O)COCC(=O)N[C@@H](Cc2ccc(O)cc2)C(=O)NC(C)(Cc2ccccc2)C(=O)N[C@@H](CC(C)C)C(=O)N[C@@H](CCCC)C(=O)N[C@@H](CCCNC(=N)N)C(=O)N2CCC[C@H]2C(=O)N[C@@H](CCCNC(=N)NC)C(=O)N[C@@H](CC(N)=O)C(N)=O)C(=O)O)CC1 (stereo partly drawn)	SSTR3 (Homo sapiens, UniProt P32745)	antagonist, DiscoverX GPCR panel	–	1 µM	61%
O=C(CN1CN(c2ccccc2)C2(CCN(C(=O)c3cnc4[nH]ncc4c3)CC2)C1=O)NCC(F)(F)F	CDK14 (Homo sapiens, UniProt O94921)	inhibitor	–	concentration not given	< 50%
C=CC(=O)Nc1cc(-c2nn(C3CCC(N4CCN(C(C)=O)CC4)CC3)c3ncnc(N)c23)ccc1Oc1ccccc1 (stereo not drawn)	SRPK1 (Homo sapiens, UniProt Q96SB4)	inhibitor, KiNativ profiling	biochemical	2 µM	-1.7%
CCCC(=O)CC(=O)N[C@H]1CCOC1=O	lasR	reporter gene, antagonist	Escherichia coli JLD271	10 µM, pSC11 and pJN105L plasmids, added: OdDHL 2 nM	73%
CCn1nc(-c2ccccc2)nc2c(=O)n(C)c(=O)nc1-2	USP14 (Homo sapiens, UniProt P54578)	enzyme activity, inhibitor	–	17 µM	92%
CCCCCCCCCC(=O)CC(=O)NC1CCCCC1=O (stereo not drawn)	lasR	reporter gene, antagonist	Escherichia coli JLD271	10 µM, pSC11 and pJN105L plasmids, added: OdDHL 2 nM	-96%
CN[C@@H]1[C@H](O)[C@H](NC)[C@H]2O[C@]3(O)[C@H](O[C@@H]2[C@H]1O)O[C@H](C)C[C@H]3NC(=O)Cc1cc(Cl)ccn1	HTR2B (Homo sapiens, UniProt P41595)	ligand displacement, radioligand	–	10 µM	-12%
CCCCCCCCCNC(=O)CC(=O)c1ccccc1	lasR	reporter gene, antagonist	Escherichia coli JLD271	10 µM, pSC11 and pJN105L plasmids, added: OdDHL 2 nM	46%
C[C@H](NCc1ccc(-c2ccc(C(F)(F)F)cc2)cc1)C(N)=O	Na+/K+-ATPase, pig heart	enzyme activity	biochemical	1 µM, added: ATP 100 µM	-9%
CCCCCCC(=O)N[C@H]1CCOC1=O	lasR	reporter gene, antagonist	Pseudomonas aeruginosa PAO-JP2	100 µM, plasI-LVAgfp reporter, added: OdDHL 150 nM	26%
N[C@H](C(=O)N1CCCC1)C1CCN(c2nccc3c(-c4ncc(Cl)cc4Cl)cccc23)CC1	CSNK1A1 (Homo sapiens, UniProt P48729)	kinase activity, inhibitor	–	10 µM, added: ATP 1 mM	-0.8%
C/C(=N\OCCCN1CCCCC1)c1ccc(C(F)(F)F)cc1	CCKAR (Homo sapiens, UniProt P32238)	antagonist, IP-One	–	10 µM	-3.78%
CS(C)(=O)=Nc1ccc(-c2ccc(-c3nc4cc(O[C@@H]5CO[C@H]6[C@@H]5OC[C@H]6O)[nH]c4cc3F)cc2)cc1	STK3 (Homo sapiens, UniProt Q13188)	enzyme activity, inhibitor	–	10 µM	11%
CCC1CC(c2ccc(C(=O)O)cc2C)=NN1c1ccc(C#N)c(Cl)c1 (stereo not drawn)	PRMT1 (Homo sapiens, UniProt Q99873)	enzyme activity, inhibitor	–	10 µM	4%
O=C1CCN1c1cccc(O)c1	Uncharacterized hydrolase SAUSA300_2518 (Staphylococcus aureus, UniProt Q2FDS6)	enzyme activity, inhibitor	–	50 µM	13.7%
CC(C)(C)C1CCC(c2cc3ccccc3s2)(N2CCCCC2)CC1 (stereo not drawn)	Uncharacterized protein (Trypanosoma brucei brucei, UniProt Q386Q8)	enzyme activity, inhibitor, coupled colorimetric	–	30 µM, added: E. coli pyrophosphatase coupling	23.5%
CC(C)[C@H]1NC(=O)C[C@H]2/C=C/CCSSC[C@@H](NC1=O)C(=O)N[C@H](Cc1cccc3ccccc13)C(=O)NCC(=O)O2	RPS6KA6	enzyme activity, inhibitor	–	10 µM	0.8%
CC(=O)NC[C@@H]1[C@@H](O)C[C@H]2[C@H](O)C[C@@H](CO)N12	β-N-acetylglucosaminidase	enzyme activity, inhibitor, colorimetric	Canavalia ensiformis	68.4 nM, added: p-nitrophenyl GlcNAc substrate	87.4% and 86.9%
O=C(O)c1ccccc1/C=N/Nc1nc(-c2ccccc2Cl)cs1	RPS6KA6	enzyme activity, inhibitor	–	1 µM	-3.61%
CC(=O)NC[C@@H]1C[C@@H](O)[C@H]2[C@H](O)C[C@@H](CO)N12	β-N-acetylglucosaminidase	enzyme activity, inhibitor, colorimetric	Canavalia ensiformis	300 nM, added: p-nitrophenyl GlcNAc substrate	55.3% and 60.7%
CN(/N=C/c1ccccc1C(=O)O)c1nc(-c2ccccc2Cl)cs1	DAPK1 (Homo sapiens, UniProt P53355)	kinase activity	–	1 µM, mean	9.35%
CCCCCCCCCCCCn1nnc(CC(=O)O)n1	lasR	reporter gene, antagonist	Escherichia coli JLD271	10 µM, pSC11 and pJN105L plasmids, added: OdDHL 2 nM	-1%
O=P(Nc1cccc(F)c1)(Oc1ccc(Cl)cc1)Oc1ccc(Cl)cc1	KCNT1 (Homo sapiens, UniProt Q5JUK3)	ion current, inhibitor, patch clamp	HEK293	10 µM	> 40%
CN(C)[C@H]1C[C@@]23CC[C@@]4(O2)C(=CC[C@]2(C)[C@@H](c5ccc6ccncc6c5)CC[C@H]24)C=C3[C@@H](O)[C@@H]1O	EPHB2 (Homo sapiens, UniProt P29323)	ATP probe labelling, inhibitor, KiNativ profiling	–	0.1 µM	-2.6%

Repeated from above:
SMILES	target	test	test system	conditions	inhibition
CC(C)[C@H]1NC(=O)C[C@H]2/C=C/CCSSC[C@@H](NC1=O)C(=O)N[C@H](Cc1cccc3ccccc13)C(=O)NCC(=O)O2	RPS6KA6	enzyme activity, inhibitor	–	10 µM	0.8%
CC(=O)NC[C@@H]1[C@@H](O)C[C@H]2[C@H](O)C[C@@H](CO)N12	β-N-acetylglucosaminidase	enzyme activity, inhibitor, colorimetric	Canavalia ensiformis	68.4 nM, added: p-nitrophenyl GlcNAc substrate	87.4% and 86.9%
